Results gathered from unrelated publications.
Numbered parts are unrelated; each lists some results of a single study. Several values in a cell are separate wells, animals, samples, runs or records.

Block 1 — cell line: normal organoid sample G; method: CellTiter-Glo; host: human; matrix: normal-adjacent epithelium; concentration: 0.1 µM; baseline: DMSO
SMILES | viability
O[C@]1(C(F)(F)F)CCCC[C@H]1Nc1ccc(F)cc1 | 103% and 107%
O=C(NCCCC1CCCCC1)c1ccc(CNC(=O)c2cnn(-c3ccccc3)c2C(F)(F)F)cc1 | 116% and 129%
CN1C(=O)[C@@H](N2CCc3cn(Cc4ccccc4)nc3C2=O)COc2ccccc21 | 104% and 114%
COc1cc(N[C@@H]2CCCC[C@]2(O)C(F)(F)F)ccc1F | 103% and 119%
Nc1c(C(=O)NCc2ccc(C(=O)NCCCC3CCCCC3)cc2)cnn1-c1ccccc1 | 127% and 118%
CS(=O)(=O)N1CCCC(NC(=O)[C@H](CCC2CCCCC2)NC(=O)c2ccc(CNC(=O)c3cnc4ccccn34)cc2)C1 (stereo partly drawn) | 112% and 138%
CN1C(=O)[C@@H](N2CCc3c(nn(Cc4ccccc4)c3Br)C2=O)COc2ccccc21 | 102% and 105%

Block 2 — cell line: mouse MPNST tumor cells; method: high-content immunofluorescence imaging; item: nuclear SOX9; concentration: 10 µM; time: 12 h; setting: mean of 2 replicates; baseline: DMSO control; reading: higher = more nuclear SOX9
Structure (SMILES) | nuclear SOX9 intensity
Cc1c(NC(=O)c2cccnc2)c(=O)n(-c2ccccc2)n1C | 96.9 % of DMSO
Nc1ncc(Cc2ccc(Br)cc2)s1 | 90.5 % of DMSO
CS(=O)(=O)c1ccc(-c2cc(Br)sc2-c2ccc(F)cc2)cc1 | 98.7 % of DMSO
O=C(O)Cc1cc(I)c(Oc2ccc(O)c(I)c2)c(I)c1 | 101 % of DMSO
Cn1c(=O)c2c(ncn2CC2OCCO2)n(C)c1=O | 95.1 % of DMSO
Cc1nc(N)c2nnn(C[C@H]3CN(Cc4nccs4)CCO3)c2n1 | 103 % of DMSO
NCCCC(O)(P(=O)(O)O)P(=O)(O)O | 97.3 % of DMSO
Oc1cc2c(c(Cl)c1O)CCNCC2c1ccccc1 (stereo not drawn) | 99.2 % of DMSO
Cc1c(N(C)CS(=O)(=O)O)c(=O)n(-c2ccccc2)n1C | 93.3 % of DMSO

Block 3 — organism: Sarcocystis neurona; effect on: parasite growth; concentration: 10 µM; time: 96 h; baseline: untreated
SMILES | log2 fold change
CC(C)c1ccc2oc3nc(N)c(C(=O)O)cc3c(=O)c2c1 | 2.64
Nc1ccn([C@H]2CC[C@@H](CO)O2)c(=O)n1 | 0.28
CN(C)CCOC(c1ccccc1)c1ccccc1 | 0.25
CN(C)CCC=C1c2ccccc2COc2ccccc21 | 0.31
CC(C)n1c(/C=C/C(O)CC(O)CC(=O)O)c(-c2ccc(F)cc2)c2ccccc21 (stereo not drawn) | 0.26
CN(C/C=C/C#CC(C)(C)C)Cc1cccc2ccccc12 | 0.39
CCN1CCC[C@H]1CNC(=O)c1c(O)c(Cl)cc(Cl)c1OC | -0.14
O=C(O)COCCN1CCN(C(c2ccccc2)c2ccc(Cl)cc2)CC1 (stereo not drawn) | -0.44

Block 4 — method: logD(dd/w) and ALogP; setting: JT method
SMILES | lipophilic permeability efficiency
CC(C)C[C@@H]1NC(=O)[C@H](CC(C)C)NC(=O)[C@H](CC(C)C)NC(=O)[C@H](C(C)C)NC(=O)[C@@H](Cc2cscn2)NC(=O)[C@@H](CC(C)C)NC(=O)[C@H](C)NC1=O | 2.65
CC(C)C[C@@H]1NC(=O)[C@H](CC(C)C)NC(=O)[C@@H](CC(C)C)NC(=O)[C@H](C(C)C)NC(=O)[C@@H](Cc2cscn2)NC(=O)[C@H](C)NC(=O)[C@H](CCC(=O)N2CCCC2)NC1=O | 1.74
CC(C)C[C@@H]1NC(=O)[C@H](CCC(=O)N2CCCC2)NC(=O)[C@@H](C(C)C)NC(=O)[C@H](C(C)C)NC(=O)[C@H](CC(C)C)NC(=O)[C@@H](CC(C)C)NC(=O)[C@H](CC(C)C)NC1=O | 2.25
CC(C)C[C@@H]1NC(=O)[C@H](C(C)C)NC(=O)[C@H](Cc2cscn2)NC(=O)[C@@H](CC(C)C)NC(=O)[C@H](C(C)C)NC(=O)[C@H](CC(C)C)NC(=O)[C@@H](CC(C)C)NC1=O | 2.26
CC(C)C[C@@H]1NC(=O)[C@H](CC(C)C)NC(=O)[C@@H](C(C)C)NC(=O)[C@H](CC(C)C)NC(=O)[C@@H](Cc2cscn2)NC(=O)[C@H](Cc2cscn2)NC(=O)[C@H](CCC(=O)N2CCCC2)NC1=O | 2.13
CC(C)C[C@@H]1NC(=O)[C@H](CC(C)C)NC(=O)[C@H](CC(C)C)NC(=O)[C@@H](C)NC(=O)[C@H](C(C)C)NC(=O)[C@H](C)NC(=O)[C@H](C)NC1=O | 1.63
CC(C)C[C@@H]1NC(=O)[C@H](CC(C)C)NC(=O)[C@@H](CC(C)C)NC(=O)[C@H](CC(C)C)NC(=O)[C@@H](CCC(=O)N2CCCC2)NC(=O)[C@H](Cc2cscn2)NC(=O)[C@H](C)NC1=O | 2.09
CC(C)C[C@@H]1NC(=O)[C@H](CC(C)C)NC(=O)[C@@H](CC(C)C)NC(=O)[C@H](C(C)C)NC(=O)[C@H](C(C)C)NC(=O)[C@H](C)NC(=O)[C@H](C)NC1=O | 2.07
CC(C)C[C@@H]1NC(=O)[C@H](C)NC(=O)[C@H](Cc2cscn2)NC(=O)[C@H](CC(C)C)NC(=O)[C@@H](CCC(=O)N2CCCC2)NC(=O)[C@H](CC(C)C)NC(=O)[C@@H](CC(C)C)NC1=O | 2.23

For quick reference, copied from above (block 1):
SMILES | viability
Nc1c(C(=O)NCc2ccc(C(=O)NCCCC3CCCCC3)cc2)cnn1-c1ccccc1 | 127% and 118%
CN1C(=O)[C@@H](N2CCc3c(nn(Cc4ccccc4)c3Br)C2=O)COc2ccccc21 | 102% and 105%
COc1cc(N[C@@H]2CCCC[C@]2(O)C(F)(F)F)ccc1F | 103% and 119%
CS(=O)(=O)N1CCCC(NC(=O)[C@H](CCC2CCCCC2)NC(=O)c2ccc(CNC(=O)c3cnc4ccccn34)cc2)C1 (stereo partly drawn) | 112% and 138%
